Assay results from different studies.
Numbered parts are unrelated; each lists some results of a single study. Substitutions count along the parent as printed.

Series 1
Target: FOSB, bZIP domain (human)
Method: DHFR protein complementation
Medium: yeast
Notes: single substitutions, most at no-binding floor
Baseline: wild-type JUN-FOS pair
Direction: higher = stronger binding
Endpoint: binding fitness
Parent: JUN, bZIP domain (human); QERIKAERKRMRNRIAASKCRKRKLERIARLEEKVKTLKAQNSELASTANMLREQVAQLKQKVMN; partner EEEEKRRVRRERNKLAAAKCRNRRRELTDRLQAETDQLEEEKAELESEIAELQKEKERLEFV
E54V: -0.289 natural log
E44A: -0.017 natural log
V56L: -0.462 natural log
K34G: -0.135 natural log
K39G: -0.719 natural log
Q55E: -0.0722 natural log
Q41G: -0.113 natural log
S43W: -0.238 natural log
S43F: -0.163 natural log
A57M: -0.127 natural log
V56G: -1.19 natural log
R30H: 0.0706 natural log
A57R: -0.162 natural log
L31G: -0.852 natural log

Series 2
Target: BIRC6 UBC core domain (UniProt Q9NR09)
Method: yeast two-hybrid
Medium: yeast
Notes: mostly zero background
Baseline: not given
Direction: higher = stronger interaction
Endpoint: lacZ reporter activity
B1: RNF149 RING domain (UniProt Q8NC42); chain EKGIDVDAENCAVCIENFKVKDIIRILPCKHIFHRICIDPWLLDHRTCPMCKLDVIKALGYW
B2: RNF112 RING domain (UniProt Q9ULX5); chain QPMAPRELPTCSICLERLRDPISLDCGHDFCIRCFSTHRLPGCEPPCCPECRKICKQKRGLR
B3: UBE4A RING domain (UniProt Q14139); chain LQQQEEETYADACDEFLDPIMSTLMCDPVVLPSSRVTVDRSTIARHLLSDQTDPFNRSPLTMDQIRPNTELKEKIQRWLAERKQQKEQLE
B4: RNF5 RING domain (UniProt Q99942); chain ERGGAGATFECNICLETAREAVVSVCGHLYCWPCLHQWLETRPERQECPVCKAGISREKVVP
B5: RNF4 RING domain (UniProt P78317); chain TGLRPSGTVSCPICMDGYSEIVQNGRLIVSTECGHVFCSQCLRDSLKNANTCPTCRKKINHKRYHP
B6: TRIM35 RING domain (UniProt Q9UPQ4); chain PSRSFKEELLCAVCYDPFRDAVTLRCGHNFCRGCVSRCWEVQVSPTCPVCKDRASPADLRT
B7: TRIM15 RING domain (UniProt Q9C019); chain SLKVVHELPACTLCAGPLEDAVTIPCGHTFCRLCLPALSQMGAQSSGKILLCPLCQEEEQAETPMA
Target sequence (chain): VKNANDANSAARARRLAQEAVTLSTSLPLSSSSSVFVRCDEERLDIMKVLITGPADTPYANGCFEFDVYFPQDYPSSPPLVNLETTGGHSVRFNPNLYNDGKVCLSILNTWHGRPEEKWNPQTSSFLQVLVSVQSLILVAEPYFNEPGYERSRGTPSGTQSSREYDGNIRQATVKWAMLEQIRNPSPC
B1 (RNF149 RING domain): 0
B2 (RNF112 RING domain): 0
B3 (UBE4A RING domain): 0
QLQDEEDDSLCRICMDAVIDCVLLECGHMVTCTKCGKRMSECPICRQYVVRAVHVF (RNF34 RING domain (UniProt Q969K3)): 0
B4 (RNF5 RING domain): 0
B5 (RNF4 RING domain): 0
B6 (TRIM35 RING domain): 0
B7 (TRIM15 RING domain): 0
FLKKLEQSFMCVCCQELVYQPVTTECFHNVCKDCLQRSFKAQVFSCPACRHDLGQNYIMI (UHRF2 RING domain (UniProt Q96PU4)): 0

Series 3
Target: Sal-like protein 4, full length isoform B (SALL4, Homo sapiens, UniProt Q9UJQ4-2, residues 1-616)
Method: universal PBM
Form: double-stranded DNA, one strand shown
Medium: in vitro
Tested at: not given
Notes: 8-mer, flanks averaged, mean of replicates
Direction: higher = stronger binding
Endpoint: E-score
AAGTGGAT: 0.00267
CCGACTCA: -0.152
ACGCCGCA: -0.243
CTACTTCC: -0.0742
AGCCGACT: -0.278
CCATGCAC: -0.105
AACGGCTC: -0.193
CATATTCC: 0.276
ATGGGCAG: -0.143
AATAACGT: 0.3
TATTGACA: 0.342
ATACCAGG: -0.0203
CGCAGATC: -0.18
ATAAGGAT: 0.225
AGTATCCC: -0.224
GCACTACA: 0.0169
GCAGTTTA: 0.0757
AGCCCCAC: -0.324
CTGGACGA: -0.133
CTGTTAAC: 0.115
CTCCTCAA: -0.213
CCAACCGC: -0.265
GGCGCGCC: -0.164
AACACAGT: 0.0577
GAGTCAGC: -0.218

Series 4
Target: Interferon regulatory factor 5, full length, phosphomimetic (IRF5, Homo sapiens, UniProt Q13568-2, residues 1-514, S451D/S453D/S456D/S462D)
Method: protein-binding microarray
Form: double-stranded DNA, one strand shown
Medium: in vitro
Tested at: 940 nM top
Notes: 60-bp whole probe
With: salmon DNA 0.4 mg/ml
Baseline: random background probes
Direction: higher = stronger binding
Endpoint: fitted relative affinity
Shared flanks, not repeated: GCCTAGCAC … GTCTTGATTCGCTTGACGCTGCTG
TTCGGTATCCTTCTCCTTTAGTGCTAG: 0.985 z-score
TCTCCTTTCCAAATACCCTCGTGCTAG: 2.18 z-score
TCATTTTTCCCCTGCACACTGTGCTAG: 1.51 z-score
TCATTTTTCCCTCTGGAACTGTGCTAG: 0.337 z-score
GACGGTATCAGGTATCGGGACGTGCTA: 2.12 z-score
TTAGATCTCAGACTGGACTAGTGCTAG: -0.239 z-score
GACGATTTCAGTCACGAGACGTGCTAG: 0.236 z-score
GACGATTTGGGGTATCGAGACGTGCTA: 1.07 z-score
TTAGATTTCAGACTGGATTTGTGCTAG: -0.389 z-score
TCAGGACTCGGGTCTCCCACTGTGCTA: -0.402 z-score
TCATCTCTTTCCTTCTTACTGTGCTAG: 2.17 z-score
GACGAACTGAGACTTGAGACGTGCTAG: -0.415 z-score
TTAGGTTTCCTTTTCCTTTTGTGCTAG: 2.25 z-score
GACGGTTTCGGGTTTCGTGACGTGCTA: 7.74 z-score
GACGGAATGCTTCTCCTGACGTGCTAG: -0.388 z-score
TTAGAGCTCAGTTTCGATTAGTGCTAG: 7.96 z-score
TGAAATTTTAGTAACACAGAGTGCTAG: -0.128 z-score
CTAGAACTGAGTCTCGATTAGTGCTAG: 2.78 z-score

Series 5
Target: Prothrombin, mature alpha-thrombin (F2, Homo sapiens, UniProt P00734)
Method: aptamer microarray, sandwich
Form: DNA with 2'F-ANA
Medium: in vitro
Tested at: 200 nM
Notes: whole 15-mer aptamer, many near background
With: Cy3 exosite-II aptamer, 400 nM
Direction: higher = stronger binding
Endpoint: mean fluorescence intensity
Sequence: GGTTGGTGTGGTTGG
2'F-ANA at 1 8 9 10 14: 62.9 a.u.
2'F-ANA at 1 2 5 7 11 12 13 14 15: 62.9 a.u.
2'F-ANA at 5 8 9 11: 74.6 a.u.
2'F-ANA at 2 3 5 8 11 12: 196 a.u.
2'F-ANA at 5 9 11 13 14 15: 45.8 a.u.
2'F-ANA at 1 2 8 11 15: 181 a.u.
2'F-ANA at 1 2 3 6 7 9 11 13 14: 95 a.u.
2'F-ANA at 1 2 3 4 10 11 12 13: 62.7 a.u.
2'F-ANA at 2 7 8 10 11: 132 a.u.
2'F-ANA at 1 3 5 9 15: 64.7 a.u.
2'F-ANA at 1 5 8 10 12 13 14 15: 44.6 a.u.
2'F-ANA at 2 3 4 6 8 10 12 13 15: 200 a.u.
2'F-ANA at 1 2 3 5 6 7 9 13 14 15: 55.5 a.u.
2'F-ANA at 1 3 5 7 10 12 13: 47.9 a.u.
2'F-ANA at 2 3 6 9 10 13 15: 262 a.u.
2'F-ANA at 3 8 9 10 15: 572 a.u.
2'F-ANA at 1 3 4 9 12 15: 412 a.u.
2'F-ANA at 1 7 10 11 13: 52 a.u.
2'F-ANA at 3 4 5 8 10 13 15: 51.2 a.u.
2'F-ANA at 1 2 5 6 7 9 11 14: 51.6 a.u.
2'F-ANA at 1 2 3 9 11 12 13 14 15: 102 a.u.
2'F-ANA at 3 5 11 14: 60.6 a.u.
2'F-ANA at 1 3 5 6 7 8 10 11 13 14 15: 47.9 a.u.
2'F-ANA at 1 4 5 6 7 10 11 13: 91.5 a.u.
2'F-ANA at 3 5 6 7 8 9 10 12 13 14 15: 51.6 a.u.

Series 6
Target: Histone acetyltransferase KAT6A, winged helix 2, GST fusion (KAT6A, Homo sapiens, UniProt Q92794, residues 85-181)
Method: protein binding microarray
Form: double-stranded DNA, one strand shown
Medium: in vitro
Tested at: not given
Notes: 8-mer, flanks averaged, mean of 2 arrays, mostly near background
Baseline: not given
Direction: higher = stronger binding
Endpoint: E-score
Residues (chain): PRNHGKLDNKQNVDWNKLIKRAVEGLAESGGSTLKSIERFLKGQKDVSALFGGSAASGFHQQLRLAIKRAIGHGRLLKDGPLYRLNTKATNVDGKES
AAATATCC: 0.205
ATGAGCGA: 0.151
AGCTGGCG: -0.0395
CACCGCCA: 0.173
TAGCCTAA: 0.006
AATACAGT: -0.202
ATAAGGTA: -0.172
CGCGTTTC: -0.0838
GGCATAAA: -0.0357
GTGTGAGA: 0.00291
AGATTACC: -0.142
ACCTCCCT: 0.0704
CAACTATA: -0.0916
CGGCGCCC: 0.188
ATCTTCCC: 0.0478
AAGAGCCT: -0.222
GCAGCCAC: 0.0916
AACTTACG: -0.107
CCCAATGC: -0.221
AAAGACGG: 0.0799
ACGAGAAT: -0.0782
CATCCGAG: 0.0115
CACTGATG: -0.0454
AATTGTCT: -0.0481
ATATGGTA: -0.101

Series 7
Target: PABPC1L2, full length, GST fusion (mouse, UniProt A0ABA7IW68)
Method: RNAcompete
Form: RNA
Medium: in vitro
Tested at: 20 nM
Notes: 7-mer, probes averaged, single round
Baseline: mean of 7-mers
Direction: higher = stronger binding
Endpoint: 7-mer Z-score
Construct (chain): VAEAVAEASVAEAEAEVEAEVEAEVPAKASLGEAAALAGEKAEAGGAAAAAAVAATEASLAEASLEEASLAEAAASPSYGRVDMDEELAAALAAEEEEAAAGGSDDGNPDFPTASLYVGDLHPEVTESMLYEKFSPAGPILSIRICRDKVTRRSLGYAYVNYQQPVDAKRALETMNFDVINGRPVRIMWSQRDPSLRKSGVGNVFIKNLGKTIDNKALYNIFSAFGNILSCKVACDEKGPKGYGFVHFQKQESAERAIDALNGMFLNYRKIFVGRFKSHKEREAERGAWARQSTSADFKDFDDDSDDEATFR
GGGGCUG: 0.611
GUACAAU: 0.0279
UGUGAAU: -0.171
CCGCAUG: -0.249
AGGUAGA: 0.0225
ACCGAGG: 0.000733
CCCGAUG: -0.26
CUAGAAC: -0.0283
AGCAUCG: -0.113
UGGGUUG: -0.0772
GAGUAAC: -0.0699
CCCGGGG: -0.351
CGAAGAC: -0.0464
UUUACAG: -0.0899

A few entries again (series 7):
CGAAGAC: -0.0464
UUUACAG: -0.0899
CCCGGGG: -0.351
ACCGAGG: 0.000733
GUACAAU: 0.0279
CUAGAAC: -0.0283
GGGGCUG: 0.611
CCGCAUG: -0.249
AGGUAGA: 0.0225
GAGUAAC: -0.0699
UGGGUUG: -0.0772
UGUGAAU: -0.171
CCCGAUG: -0.26
AGCAUCG: -0.113
